Measurements of several laboratories.
Compare with care: the assays were run in different laboratories.

C=CC(=O)Nc1cc(Nc2nccc(-c3c[nH]c4ccccc34)n2)c(OC)cc1N(C)CCN(C)C  Tmax at steady state (human, plasma; cycle 3 day 1, safety run-in, with: cisplatin plus pemetrexed): 4.03 h
Cc1cn(C(=O)c2c(-c3c(Cl)cc(Cl)cc3Cl)noc2C(C)(C)F)c2cccc(/C=C/C(=O)O)c12  Tmax (human patients; 125 mg bid, cycle 1 day 1): 1.98 h
Cc1nc2ccc(F)cc2n1-c1nc(N)c(F)c(Nc2ccc(C(F)(F)F)cc2)n1  Tmax median (human patients, plasma; oral, 400 mg twice weekly, cycles 1 and 2 pooled): 3.55 h
N#Cc1ccc2c(c1)[C@H]1CCCN(C(=O)c3ccc4[nH]cnc4c3)[C@H]1C2  tmax steady state (human, plasma; oral, 240 mg once daily, steady state, median): 0.667 h
C[C@H](O)c1cc(C(=O)N[C@@H](C)Cn2ccc(-c3ccc(C#N)c(Cl)c3)n2)n[nH]1  tmax (human, fasted, plasma; oral, 300 mg darolutamide tablet, median): 3.5 h
O=C(Nc1cnccc1Cl)N1CCN(Cc2ccc3c(c2)OC(F)(F)O3)CC1  tmax (human healthy young men, plasma; oral, 25 mg once daily, day 1, multiple dose median): 1.24 h
CN(C)N=Nc1[nH]cnc1C(N)=O  Tmax (median) (human patients, plasma; intravenous, 1000 mg/m^2 over 1 h, cycle 2 day 1, staggered with twice-weekly co-drug): 1 h
Cc1noc(C)c1-c1cc(C(O)(c2ccccn2)c2ccccn2)c2nc(C3CC3)[nH]c2c1  Tmax (human patients, plasma; oral, 1.4 mg, cycle 1 day 8, monotherapy): 0.6 h
C=CC(=O)Nc1cc(Nc2nccc(-c3cn(C)c4ccccc34)n2)c(OC)cc1N(C)CCN(C)C  Tmax at steady state (human, plasma; oral, cycle 3 day 1, safety run-in, with: cisplatin plus pemetrexed): 5.91 h
COc1cc(C(=O)NC2CCN(C)CC2)c(F)cc1Nc1ncc(C(F)(F)F)c(Oc2cccc3c2C(=O)N(C)C3)n1  Tmax at steady state (human patients, plasma; oral, 10 mg once daily repeated, median): 3.51 h
Cc1cc(C)c(CNC(=O)c2cc(Cl)c3c(c2C)O[C@@](C)([C@H]2CC[C@H](N(C)C)CC2)O3)c(=O)[nH]1  Tmax unbound drug (human, plasma; oral, 200 mg, cycle 1 day 15): 3.91 h

Some of these lines once more:
Cc1cn(C(=O)c2c(-c3c(Cl)cc(Cl)cc3Cl)noc2C(C)(C)F)c2cccc(/C=C/C(=O)O)c12  Tmax (human patients; 125 mg bid, cycle 1 day 1): 1.98 h
